# Measurements collected from several papers.
# Compare with care: the assays were run in different laboratories. Values joined by “and” are separate records of one study, mostly repeats; a detail may differ. ± marks the error that the study gave.
# ALB: Albumin (ALB, Bos taurus, UniProt P02769)
# UniProt P02769, sequence (whole entry, looked up): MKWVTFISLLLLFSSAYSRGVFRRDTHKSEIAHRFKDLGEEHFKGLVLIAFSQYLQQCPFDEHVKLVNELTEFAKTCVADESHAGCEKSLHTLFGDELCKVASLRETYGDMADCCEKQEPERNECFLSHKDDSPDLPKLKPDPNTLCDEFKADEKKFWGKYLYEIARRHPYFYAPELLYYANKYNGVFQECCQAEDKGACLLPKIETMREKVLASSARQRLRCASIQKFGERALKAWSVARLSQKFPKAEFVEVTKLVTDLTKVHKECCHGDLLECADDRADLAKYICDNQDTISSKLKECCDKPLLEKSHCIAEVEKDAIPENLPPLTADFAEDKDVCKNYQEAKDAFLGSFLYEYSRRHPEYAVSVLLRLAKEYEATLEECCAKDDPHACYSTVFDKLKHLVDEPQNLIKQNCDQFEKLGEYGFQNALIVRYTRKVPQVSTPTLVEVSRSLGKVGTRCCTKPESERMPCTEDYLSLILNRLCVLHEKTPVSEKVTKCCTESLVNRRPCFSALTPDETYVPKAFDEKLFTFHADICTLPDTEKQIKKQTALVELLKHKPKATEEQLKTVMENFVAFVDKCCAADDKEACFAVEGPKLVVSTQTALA
# STING1 H232R: Stimulator of interferon genes protein (STING1, Homo sapiens, UniProt Q86WV6, H232R)
# UniProt P20813, sequence (whole entry, looked up): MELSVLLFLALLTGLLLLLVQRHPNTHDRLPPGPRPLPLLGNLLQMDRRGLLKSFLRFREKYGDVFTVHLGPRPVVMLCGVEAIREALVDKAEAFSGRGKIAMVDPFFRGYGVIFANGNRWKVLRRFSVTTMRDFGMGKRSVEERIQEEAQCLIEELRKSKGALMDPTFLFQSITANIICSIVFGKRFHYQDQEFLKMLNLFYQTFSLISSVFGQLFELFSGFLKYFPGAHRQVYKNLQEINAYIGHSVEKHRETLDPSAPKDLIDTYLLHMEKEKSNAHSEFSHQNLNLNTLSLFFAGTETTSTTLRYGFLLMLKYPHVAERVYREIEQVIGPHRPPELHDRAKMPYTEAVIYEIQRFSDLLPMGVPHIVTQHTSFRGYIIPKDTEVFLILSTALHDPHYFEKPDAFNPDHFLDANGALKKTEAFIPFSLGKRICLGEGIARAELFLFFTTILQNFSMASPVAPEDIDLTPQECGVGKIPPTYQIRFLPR
# UniProt Q86WV6, sequence (whole entry, unmodified, looked up): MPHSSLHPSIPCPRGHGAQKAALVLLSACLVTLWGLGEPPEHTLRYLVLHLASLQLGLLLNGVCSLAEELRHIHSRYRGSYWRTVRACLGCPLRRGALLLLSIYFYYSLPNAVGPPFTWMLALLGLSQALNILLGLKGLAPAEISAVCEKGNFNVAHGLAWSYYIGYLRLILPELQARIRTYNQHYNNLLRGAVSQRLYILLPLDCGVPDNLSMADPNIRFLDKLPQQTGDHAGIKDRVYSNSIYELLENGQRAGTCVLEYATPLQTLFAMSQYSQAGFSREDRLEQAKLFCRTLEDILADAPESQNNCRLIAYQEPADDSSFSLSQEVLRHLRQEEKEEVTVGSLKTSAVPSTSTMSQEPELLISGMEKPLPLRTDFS
Compound,tested on,test,test system,setting,scale,measurement,value
CC(C)C[C@H](NC(=O)[C@@H](CCCCNC(=O)[C@@H](Cc1ccccc1)NC(=O)CCCCCNC(=O)CN1CCN(CC(=O)O)CCN(CC(=O)O)CCN(CC(=O)O)CC1)NC(=O)[C@H](Cc1ccc(O)cc1)NC(=O)[C@H](CO)NC(=O)[C@H](Cc1c[nH]c2ccccc12)NC(=O)[C@H](Cc1c[nH]cn1)NC(=O)[C@@H]1CCC(=O)N1)C(=O)N[C@@H](CCCNC(=N)N)C(=O)N1CCC[C@H]1C(=O)NCC(N)=O [indium-111 labelled],,,"female athymic nude mice, pancreas","intravenous, 0.037 MBq, 2 h",,tissue uptake,0.05 ± 0.03 %ID/g
Nc1nc(-c2ccc(Cl)cc2)nc2[nH]nc(Nc3cccc(F)c3)c12,HeLa Ohio,,,72 h,,CC50,113 µM
COc1cccc(OC)c1-c1cc(C(=O)NC2(C(=O)O)C3CC4CC(C3)CC2C4)nn1-c1ccc(C(=O)N(C)CCCN(C)CCCN(C)C(=O)[C@H](CCCCNC(=O)[C@H](CC(C)C)NC(=O)C2OC2C(=O)O)NC(=O)CN2CCN(CC(=O)[O-])CCN(CC(=O)[O-])CCN(CC(=O)[O-])CC2)cc1C(C)C.[177Lu+3] (mixture of isomers),HT-29 tumour model,,"host not given, pancreas","72 h, tumour-bearing",,tracer uptake,0.2 %ID/g
CC(C)C[C@H](NC(=O)[C@H](Cc1ccc(O)cc1)NC(=O)[C@@H](CCCNC(=N)N)NC(=O)[C@@H](CO)NC(=O)[C@H](Cc1ccccc1)NC(=O)[C@H](CC1CCCCC1)NC(=O)[C@H](CC(=O)O)NC(=O)CN1CCN(CC(=O)O)CCN(CC(=O)O)CCN(CC(=O)O)CC1)C(=O)N[C@@H](Cc1c[nH]c2ccccc12)C(=O)N[C@@H](CO)C(=O)O [copper-64 labelled],,,"human, small intestine","concentration not given, 1 h",,activity concentration,2430 Bq/mL and 2130 Bq/mL and 2210 Bq/mL and 2010 Bq/mL and 3090 Bq/mL and 3040 Bq/mL
O=C1NC2(CC2)COc2ncc(F)cc2[C@H]2COCCN2c2ccn3ncc1c3n2,Salmonella typhimurium,Ames test,TA102,"5000 µg/plate, 48 h, with: without S9",,revertant colonies,395 ± 9 revertants/plate
COc1cccc(OC)c1-c1cc(C(=O)NC2(C(=O)O)C3CC4CC(C3)CC2C4)nn1-c1ccc(C(=O)N(C)CCOCCOCCN(C)C(=O)[C@H](CCCCNC(=O)[C@H](CC(C)C)NC(=O)C2OC2C(=O)O)NC(=O)CN2CCN(CC(=O)[O-])CCN(CC(=O)[O-])CCN(CC(=O)[O-])CC2)cc1C(C)C.[177Lu+3] (mixture of isomers),HT-29 tumour model,,"host not given, pancreas","7 days, tumour-bearing",,tracer uptake,0.17 %ID/g
CN1CCN(c2ccc3[nH]c(-c4ccc5[nH]c(-c6ccc(OCCCCNC(=O)c7ccc8c(c7)C7(OC8=O)c8ccc(N(C)C)cc8C(C)(C)c8cc(N(C)C)ccc87)cc6)nc5c4)nc3c2)CC1,ALB,"binding, fluorescence titration",PBS,1 h,,Kd,136 ± 17 µM
O=C(N[C@@H](CCNC(=O)c1ccc([N+](=O)[O-])o1)c1nc2ccccc2[nH]1)c1ccc(-n2cnnc2)cc1,STING1 H232R,"reporter gene, inhibitor",THP1-Dual KI-hSTING-R232,"24 h, 1 h preincubation, with: diABZI 500 nM",,EC50,> 40 µM
Cc1ncsc1-c1ccc(C(C)NC(=O)C2CC(O)CN2C(=O)C(NC(=O)CCCCCCCCCCN2CCCC(Nc3ncc(Cl)c(Nc4ccccc4S(=O)(=O)C(C)C)n3)C2)C(C)(C)C)cc1 (stereo not drawn),22Rv1,"RNA-seq, refers to: S100PBP",,concentration not given,reference: DMSO,log2 fold change,-1.47
C=C(NC(=O)c1csc(-c2nc3c(cc2O)-c2nc(cs2)C(=O)NC(C(C)O)C(=O)NC(=C(C)OC)c2nc(cs2)C(=O)NC2c4nc(cs4)C(=O)NC(COC(=O)c4c5c6c(cccc6n4O)COC(=O)C(OC4CC(C)(O)C(N(C)C)C(C)O4)C2OC5)c2nc-3cs2)n1)C(N)=O (stereo not drawn),,,"ICR mice, Streptococcus pneumoniae ATCC 49169 infected, immunocompromised, blood","intravenous, 4 mg/kg/day once daily",,MRT(0-t),1.13 h
Cc1ccc(Nc2n[nH]c3nc(-c4ccccc4)nc(N)c23)cc1,HeLa Ohio,,,72 h,,CC50,> 158 µM
C=CC(=O)Nc1cc(Nc2nccc(-c3cn(C)c4ccccc34)n2)c(OCC(F)(F)F)nc1N(C)CCN(C)C,human hepatocytes lot HC3-31,"CYP1A2 enzyme activity, inducer",,1 µM,reference: omeprazole 100 µM,induction,9.32%
N#C[C@@H]1CCCN1C(=O)CNC(=O)c1ccnc2ccc(OCCCN3CCN(C(=O)CCc4ccc5c(c4)CN4CCN(Cc6cc(CCC(=O)O)ccc6O)CC(=O)[O][Al-]([18F])([O]C(=O)C4)[O]5)CC3)cc12 (stereo partly drawn),U-87 MG tumour model,,"host not given, bone","1 h, tumour-bearing",,tracer uptake,8.26 %ID/g
OC(Cc1cc(-c2ccc(C(O)C(F)(F)F)s2)sc1-c1ccc(-c2sc(-c3ccc(C(O)C(F)(F)F)s3)cc2CC(O)C(F)(F)F)s1)C(F)(F)F (stereo not drawn),primary human fetal neurons,LC-MS/MS,,"4 µM, 60 min, replicate 1",,amount in cell extract,1.32 nmol and 1.29 nmol and 1.53 nmol
CC(C)Cc1ccc(C(C)C(=O)N[C@@H](CCCCNC(=O)CCOCCOCCOCCOCCOCCOCCNC(=O)CN2CCN(CC(=O)[O-])CCN(CC(=O)[O-])CCN(CC(=O)[O-])CC2)C(=O)Nc2cccc3c(C(=O)NCC(=O)N4CC(F)(F)C[C@H]4C#N)ccnc23)cc1.[177Lu+3] (stereo partly drawn),U-87 MG tumour model,,"host not given, stomach","4 h, tumour-bearing",,tracer uptake,1.8 %ID/g
Cc1cccc(-c2nc(N)c3c(Nc4ccc(F)cc4)n[nH]c3n2)c1,HeLa Ohio,,,72 h,,CC50,23.9 µM
C/C(N)=N/C(=N\S(=O)(=O)c1ccc(C(F)(F)F)cc1)N1C[C@H](c2ccccc2)C(c2ccc(Cl)cc2)=N1,,,"C57BL/6 mouse, kidney","intravenous, 10 mg/kg",,Cmax,30800 ng/mL
Nc1nc(-c2ccc(OC(F)(F)F)cc2)nc2[nH]nc(Nc3ccc(Cl)cc3)c12,HeLa Ohio,,,72 h,,CC50,10.2 µM
CCN(CC)CC#CCNc1ccnc2cc(Cl)ccc12,Salmonella typhimurium,mini-Ames test,TA97a,"250.0 µg/well, without S9",,revertants,0 revertants/well
CC(C)OCCOCc1ccc(OCC(O)CN(N=O)C(C)C)cc1 (stereo not drawn),Salmonella typhimurium,Ames test,TA1535,"500 µg/plate, 30 % rat S9",reference: solvent control,revertant fold increase,1.2 fold
CNC(=O)C1CCCN(C(=O)C2CC3CCC2N3C(=O)[C@@H]2C[C@@H](O)CN2C(=O)NCc2cccc(Cl)c2F)C1 (mixture of isomers),"Cytochrome P450 2B6 (CYP2B6, Homo sapiens, UniProt P20813)",preincubation without NADPH,human,5.56 µM,reference: negative control,remaining activity,105% and 100% and 110%
O=C(Nc1cnccc1-c1ccc([18F])nc1)c1ccnc(NC(=O)C2CC2)c1,,,"FVB/NJ mice (both sexes), skin","intravenous, dose not given, 120 min",,SUV,0.062
N#C[C@@H]1CC(F)(F)CN1C(=O)CNC(=O)c1ccnc2c(NC(=O)[C@H](CCCCNC(=O)CCOCCOCCOCCOCCOCCOCCNC(=O)CN3CCN(CC(=O)[O-])CCN(CC(=O)[O-])CCN(CC(=O)[O-])CC3)NC(=O)CCCc3ccc(I)cc3)cccc12.[177Lu+3],U-87 MG tumour model,,"host not given, pancreas","48 h, tumour-bearing",,tracer uptake,0.27 %ID/g
Nc1nc2cc(C(=O)c3ccc(F)cc3)ccc2[nH]1,Salmonella typhimurium,Ames preincubation test,TA1535,"78.0 µg/plate, without S9",,revertants,18 revertants/plate
N#C[C@@H]1CC(F)(F)CN1C(=O)CNC(=O)c1ccnc2c(NC(=O)[C@@H](N)CCCCNC(=O)CCOCCOCCOCCOCCOCCOCCNC(=O)CN3CCN(CC(=O)[O-])CCN(CC(=O)[O-])CCN(CC(=O)[O-])CC3)cccc12.[177Lu+3],U-87 MG tumour model,,"host not given, blood","48 h, tumour-bearing",,tracer uptake,0.11 %ID/g
CN(Cc1ccccc1)C(=O)CN1CCN(CC(=O)[O-])CCN(Cc2cccc(C(=O)[O-])n2)CC1.[177Lu+3],,,"mouse, stomach","intravenous, 1 h",,tracer uptake,0.73 %ID/g
COc1cccc(OC)c1-c1cc(C(=O)NC2(C(=O)O)C3CC4CC(C3)CC2C4)nn1-c1ccc(C(=O)NCCNC(=O)[C@H](CCCCNC(=O)[C@H](CC(C)C)NC(=O)C2OC2C(=O)O)NC(=O)CN2CCN(CC(=O)[O-])CCN(CC(=O)[O-])CCN(CC(=O)[O-])CC2)cc1C(C)C.[177Lu+3] (mixture of isomers),HT-29 tumour model,,"host not given, pancreas","72 h, tumour-bearing",,tracer uptake,0.2 %ID/g
Cc1ccc(Nc2n[nH]c3nc(-c4ccccn4)nc(N)c23)cc1,HeLa Ohio,,,72 h,,CC50,> 158 µM
CN1CCN(c2ccc3[nH]c(-c4ccc5[nH]c(-c6ccc(OCCCCNC(=O)c7cccc8c7C(=O)OC87c8ccc(N(C)C)cc8C(C)(C)c8cc(N(C)C)ccc87)cc6)nc5c4)nc3c2)CC1,ALB,"binding, fluorescence titration",PBS,1 h,,Kd,132 ± 18 µM
Nc1ncnc2[nH]nc(Nc3ccc(F)c(F)c3)c12,HeLa Ohio,,,72 h,,CC50,> 191 µM
N#C[C@@H]1CC(F)(F)CN1C(=O)CNC(=O)c1ccnc2c(NC(=O)CCOCCOCCOCCOCCOCCOCCNC(=O)[C@H](CCCCNC(=O)CN3CCN(CC(=O)[O-])CCN(CC(=O)[O-])CCN(CC(=O)[O-])CC3)NC(=O)CCCc3ccc(I)cc3)cccc12.[177Lu+3],U-87 MG tumour model,,"host not given, heart","48 h, tumour-bearing",,tracer uptake,0.14 %ID/g
O=C(N[C@@H](CCCCNC(=O)c1ccc([N+](=O)[O-])o1)c1nc2ccccc2[nH]1)c1ccc(-c2ncco2)cc1,STING1 H232R,"reporter gene, inhibitor",THP1-Dual KI-hSTING-R232,"24 h, 1 h preincubation, with: diABZI 500 nM",,EC50,9.8 µM
O=C([O-])CN1CCN(CC(=O)[O-])CCN(Cc2cccc(C(=O)[O-])n2)CC1.[18F-].[Sc+3],,,"mouse, blood","intravenous, 1 h",,tracer uptake,0.64 %ID/g
O=C1C2CC3CC1CC(C(=O)N1CCN(c4ccc([N+](=O)[O-])c5ncccc45)CC1)(C3)C2,Salmonella typhimurium,Ames test,TA1535,"0.02 µg/well, without S9",reference: vehicle,revertant fold increase,1.9
Cc1ccc(-c2nc(N)c3c(Nc4ccc(F)cc4)n[nH]c3n2)cc1F,HeLa Ohio,,,72 h,,CC50,14.5 µM
COC1CN([C@H]2CC[C@H]([C@@]3(C)Oc4c(Cl)cc(C(=O)NCc5c(SC)cc(C)[nH]c5=O)c(C)c4O3)CC2)C1,,"RNA-seq, refers to: PRG2 mouse homolog","mouse, HT-1376 xenograft, whole blood",dose not given,reference: vehicle,log2 fold change,5.92
CC[C@H](C)[C@@H]1NC(=O)[C@H](Cc2ccc(O)cc2)NC(=O)CCCSC[C@@H](C(=O)N(CC(=O)N[C@@H](CC(C)C)C(=O)NCC(N)=O)Cc2ccc(F)cc2)NC(=O)[C@H](CC(N)=O)NC(=O)[C@H](CCC(N)=O)NC1=O,,,human,"intranasal, 400 µg repeated doses",,severe adverse events,0%
Nc1nc(-c2ccccc2)nc2[nH]nc(Nc3ccc(O)cc3)c12,HeLa Ohio,,,72 h,,CC50,> 157 µM
CN(Cc1ccccc1)C(=O)CN1CCN(CC(=O)[O-])CCN(CC(=O)[O-])CC1.[44Sc+3],,,"mouse, bone","intravenous, 1 h",,tracer uptake,0.69 %ID/g

# Excerpt of the above:
Compound,tested on,test,test system,setting,scale,measurement,value
Cc1ccc(-c2nc(N)c3c(Nc4ccc(F)cc4)n[nH]c3n2)cc1F,HeLa Ohio,,,72 h,,CC50,14.5 µM
O=C(N[C@@H](CCNC(=O)c1ccc([N+](=O)[O-])o1)c1nc2ccccc2[nH]1)c1ccc(-n2cnnc2)cc1,STING1 H232R,"reporter gene, inhibitor",THP1-Dual KI-hSTING-R232,"24 h, 1 h preincubation, with: diABZI 500 nM",,EC50,> 40 µM
C/C(N)=N/C(=N\S(=O)(=O)c1ccc(C(F)(F)F)cc1)N1C[C@H](c2ccccc2)C(c2ccc(Cl)cc2)=N1,,,"C57BL/6 mouse, kidney","intravenous, 10 mg/kg",,Cmax,30800 ng/mL
COc1cccc(OC)c1-c1cc(C(=O)NC2(C(=O)O)C3CC4CC(C3)CC2C4)nn1-c1ccc(C(=O)NCCNC(=O)[C@H](CCCCNC(=O)[C@H](CC(C)C)NC(=O)C2OC2C(=O)O)NC(=O)CN2CCN(CC(=O)[O-])CCN(CC(=O)[O-])CCN(CC(=O)[O-])CC2)cc1C(C)C.[177Lu+3] (mixture of isomers),HT-29 tumour model,,"host not given, pancreas","72 h, tumour-bearing",,tracer uptake,0.2 %ID/g
CC(C)C[C@H](NC(=O)[C@@H](CCCCNC(=O)[C@@H](Cc1ccccc1)NC(=O)CCCCCNC(=O)CN1CCN(CC(=O)O)CCN(CC(=O)O)CCN(CC(=O)O)CC1)NC(=O)[C@H](Cc1ccc(O)cc1)NC(=O)[C@H](CO)NC(=O)[C@H](Cc1c[nH]c2ccccc12)NC(=O)[C@H](Cc1c[nH]cn1)NC(=O)[C@@H]1CCC(=O)N1)C(=O)N[C@@H](CCCNC(=N)N)C(=O)N1CCC[C@H]1C(=O)NCC(N)=O [indium-111 labelled],,,"female athymic nude mice, pancreas","intravenous, 0.037 MBq, 2 h",,tissue uptake,0.05 ± 0.03 %ID/g
